Assay results pooled from the literature.
Each line is one published result; not all experiments were run side by side. Several values in a cell are separate wells, animals, samples, runs or records. ± marks the error that the study gave.
MC4R: Melanocortin receptor 4 (MC4R, Homo sapiens, UniProt P32245)
UniProt P32245, sequence (whole entry, looked up): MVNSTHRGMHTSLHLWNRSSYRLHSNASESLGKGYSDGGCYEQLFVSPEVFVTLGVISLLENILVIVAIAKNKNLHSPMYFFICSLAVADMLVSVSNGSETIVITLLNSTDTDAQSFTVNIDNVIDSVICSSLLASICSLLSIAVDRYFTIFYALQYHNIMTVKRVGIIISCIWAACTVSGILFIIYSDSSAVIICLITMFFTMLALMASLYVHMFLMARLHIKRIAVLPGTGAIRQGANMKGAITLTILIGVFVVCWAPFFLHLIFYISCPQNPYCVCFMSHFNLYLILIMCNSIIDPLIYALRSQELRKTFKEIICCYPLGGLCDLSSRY
Cnr2: Cannabinoid receptor 2 (Cnr2, Mus musculus, UniProt P47936)
UniProt P47936, sequence (whole entry, looked up): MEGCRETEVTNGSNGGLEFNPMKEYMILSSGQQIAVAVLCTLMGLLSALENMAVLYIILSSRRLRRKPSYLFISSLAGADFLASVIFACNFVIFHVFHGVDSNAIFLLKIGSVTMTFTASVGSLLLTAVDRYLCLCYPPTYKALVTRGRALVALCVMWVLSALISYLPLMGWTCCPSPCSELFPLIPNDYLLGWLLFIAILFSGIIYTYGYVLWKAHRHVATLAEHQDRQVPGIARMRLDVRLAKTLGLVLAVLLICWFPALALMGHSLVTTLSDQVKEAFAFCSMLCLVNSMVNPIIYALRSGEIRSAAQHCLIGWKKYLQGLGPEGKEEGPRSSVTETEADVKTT
Urease: Urease (Canavalia ensiformis, UniProt P07374)
UniProt P07374, sequence (whole entry, looked up): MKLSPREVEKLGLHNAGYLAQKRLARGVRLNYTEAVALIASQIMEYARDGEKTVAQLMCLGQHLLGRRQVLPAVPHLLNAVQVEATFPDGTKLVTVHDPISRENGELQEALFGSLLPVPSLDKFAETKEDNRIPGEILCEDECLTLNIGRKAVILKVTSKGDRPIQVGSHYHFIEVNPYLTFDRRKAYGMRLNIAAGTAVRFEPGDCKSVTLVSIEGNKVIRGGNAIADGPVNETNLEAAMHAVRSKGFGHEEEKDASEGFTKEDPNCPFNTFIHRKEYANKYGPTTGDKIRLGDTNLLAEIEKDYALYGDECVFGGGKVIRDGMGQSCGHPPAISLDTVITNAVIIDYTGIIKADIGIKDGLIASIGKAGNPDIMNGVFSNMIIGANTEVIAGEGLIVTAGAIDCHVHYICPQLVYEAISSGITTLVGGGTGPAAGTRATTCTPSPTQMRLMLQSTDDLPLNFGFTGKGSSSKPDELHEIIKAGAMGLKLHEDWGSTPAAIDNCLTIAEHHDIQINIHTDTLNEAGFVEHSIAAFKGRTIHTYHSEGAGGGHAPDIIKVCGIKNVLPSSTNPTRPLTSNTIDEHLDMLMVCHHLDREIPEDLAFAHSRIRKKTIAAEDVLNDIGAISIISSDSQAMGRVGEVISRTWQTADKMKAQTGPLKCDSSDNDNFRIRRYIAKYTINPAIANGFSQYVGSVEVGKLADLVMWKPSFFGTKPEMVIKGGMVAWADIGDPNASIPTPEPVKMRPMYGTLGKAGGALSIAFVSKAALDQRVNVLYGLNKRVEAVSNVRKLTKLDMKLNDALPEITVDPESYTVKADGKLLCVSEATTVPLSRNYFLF
UniProt P28335, sequence (whole entry, looked up): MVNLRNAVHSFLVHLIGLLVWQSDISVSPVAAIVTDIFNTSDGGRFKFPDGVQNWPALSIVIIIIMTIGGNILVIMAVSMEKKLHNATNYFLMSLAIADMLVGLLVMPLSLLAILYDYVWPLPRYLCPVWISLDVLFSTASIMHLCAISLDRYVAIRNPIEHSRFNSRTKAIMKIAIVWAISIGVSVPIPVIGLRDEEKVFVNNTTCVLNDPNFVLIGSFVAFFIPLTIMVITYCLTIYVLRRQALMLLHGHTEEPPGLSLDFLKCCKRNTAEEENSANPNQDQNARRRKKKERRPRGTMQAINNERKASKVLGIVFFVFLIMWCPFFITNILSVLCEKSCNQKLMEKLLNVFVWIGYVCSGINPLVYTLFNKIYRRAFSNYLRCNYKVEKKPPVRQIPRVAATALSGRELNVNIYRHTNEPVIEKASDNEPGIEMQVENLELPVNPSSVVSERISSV
UniProt Q7KQM4, sequence (whole entry, looked up): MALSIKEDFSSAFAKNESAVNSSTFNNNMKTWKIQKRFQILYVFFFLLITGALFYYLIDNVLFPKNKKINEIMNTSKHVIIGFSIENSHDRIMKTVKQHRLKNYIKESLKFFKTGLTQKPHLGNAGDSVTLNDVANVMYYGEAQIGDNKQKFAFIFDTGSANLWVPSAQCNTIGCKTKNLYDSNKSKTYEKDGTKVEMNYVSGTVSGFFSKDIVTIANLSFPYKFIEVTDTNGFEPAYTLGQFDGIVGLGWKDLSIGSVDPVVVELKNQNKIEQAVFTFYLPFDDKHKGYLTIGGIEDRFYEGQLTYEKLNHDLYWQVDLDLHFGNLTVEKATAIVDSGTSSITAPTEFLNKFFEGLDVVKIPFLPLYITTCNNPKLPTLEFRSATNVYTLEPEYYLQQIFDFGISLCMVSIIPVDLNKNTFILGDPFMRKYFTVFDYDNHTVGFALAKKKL
UniProt P28223, sequence (whole entry, looked up): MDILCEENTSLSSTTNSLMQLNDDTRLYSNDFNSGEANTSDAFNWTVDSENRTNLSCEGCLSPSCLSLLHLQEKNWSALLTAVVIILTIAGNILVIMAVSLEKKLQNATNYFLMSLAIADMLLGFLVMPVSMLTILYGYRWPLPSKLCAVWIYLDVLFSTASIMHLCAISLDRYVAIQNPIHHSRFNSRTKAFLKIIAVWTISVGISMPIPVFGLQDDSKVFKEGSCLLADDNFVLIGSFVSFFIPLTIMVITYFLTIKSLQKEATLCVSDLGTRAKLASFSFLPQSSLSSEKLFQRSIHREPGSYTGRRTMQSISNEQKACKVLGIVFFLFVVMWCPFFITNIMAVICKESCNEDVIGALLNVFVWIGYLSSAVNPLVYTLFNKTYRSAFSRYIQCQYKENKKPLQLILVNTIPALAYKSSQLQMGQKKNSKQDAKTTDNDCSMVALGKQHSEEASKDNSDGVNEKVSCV
UniProt P00760, sequence (whole entry, looked up): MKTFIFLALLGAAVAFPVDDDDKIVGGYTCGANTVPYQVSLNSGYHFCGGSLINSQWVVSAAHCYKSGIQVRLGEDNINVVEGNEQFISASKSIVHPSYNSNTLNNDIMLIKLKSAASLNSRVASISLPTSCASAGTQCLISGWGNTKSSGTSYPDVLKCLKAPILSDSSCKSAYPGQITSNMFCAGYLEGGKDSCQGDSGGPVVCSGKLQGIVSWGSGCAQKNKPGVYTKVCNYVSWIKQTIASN
UniProt Q07820, sequence (whole entry, looked up): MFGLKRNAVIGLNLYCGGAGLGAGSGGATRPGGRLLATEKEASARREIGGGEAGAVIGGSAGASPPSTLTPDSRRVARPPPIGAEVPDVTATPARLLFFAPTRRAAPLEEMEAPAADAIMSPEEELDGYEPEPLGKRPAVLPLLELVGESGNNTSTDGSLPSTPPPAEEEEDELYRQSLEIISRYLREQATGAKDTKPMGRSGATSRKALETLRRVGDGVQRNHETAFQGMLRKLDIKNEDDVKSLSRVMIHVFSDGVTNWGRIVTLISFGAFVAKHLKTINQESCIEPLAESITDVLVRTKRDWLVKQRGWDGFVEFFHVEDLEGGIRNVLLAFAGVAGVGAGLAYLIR
UniProt P49146, sequence (whole entry, looked up): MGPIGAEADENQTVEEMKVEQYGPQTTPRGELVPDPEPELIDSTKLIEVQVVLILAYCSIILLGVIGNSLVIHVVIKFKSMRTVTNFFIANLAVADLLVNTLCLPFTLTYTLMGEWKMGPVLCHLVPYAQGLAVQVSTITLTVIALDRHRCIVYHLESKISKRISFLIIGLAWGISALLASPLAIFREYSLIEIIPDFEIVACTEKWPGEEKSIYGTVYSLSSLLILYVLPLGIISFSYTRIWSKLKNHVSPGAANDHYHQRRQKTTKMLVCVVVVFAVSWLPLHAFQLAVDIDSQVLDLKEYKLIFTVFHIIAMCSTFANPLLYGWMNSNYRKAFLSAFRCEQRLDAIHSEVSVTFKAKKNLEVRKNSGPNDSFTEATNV
UniProt P20813, sequence (whole entry, looked up): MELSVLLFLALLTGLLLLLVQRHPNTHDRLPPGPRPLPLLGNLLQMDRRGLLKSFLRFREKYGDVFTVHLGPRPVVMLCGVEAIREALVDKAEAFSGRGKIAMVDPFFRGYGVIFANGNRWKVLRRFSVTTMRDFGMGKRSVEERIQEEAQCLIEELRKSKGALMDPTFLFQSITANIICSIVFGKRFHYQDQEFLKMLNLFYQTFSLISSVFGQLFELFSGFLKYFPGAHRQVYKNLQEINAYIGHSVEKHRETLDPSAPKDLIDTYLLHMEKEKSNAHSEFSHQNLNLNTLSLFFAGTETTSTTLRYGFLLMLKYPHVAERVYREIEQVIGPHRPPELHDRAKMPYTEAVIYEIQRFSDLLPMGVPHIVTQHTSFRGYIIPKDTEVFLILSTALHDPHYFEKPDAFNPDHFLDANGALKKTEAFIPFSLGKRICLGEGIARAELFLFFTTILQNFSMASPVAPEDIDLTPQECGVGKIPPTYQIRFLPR
UniProt P81908, sequence (whole entry, looked up): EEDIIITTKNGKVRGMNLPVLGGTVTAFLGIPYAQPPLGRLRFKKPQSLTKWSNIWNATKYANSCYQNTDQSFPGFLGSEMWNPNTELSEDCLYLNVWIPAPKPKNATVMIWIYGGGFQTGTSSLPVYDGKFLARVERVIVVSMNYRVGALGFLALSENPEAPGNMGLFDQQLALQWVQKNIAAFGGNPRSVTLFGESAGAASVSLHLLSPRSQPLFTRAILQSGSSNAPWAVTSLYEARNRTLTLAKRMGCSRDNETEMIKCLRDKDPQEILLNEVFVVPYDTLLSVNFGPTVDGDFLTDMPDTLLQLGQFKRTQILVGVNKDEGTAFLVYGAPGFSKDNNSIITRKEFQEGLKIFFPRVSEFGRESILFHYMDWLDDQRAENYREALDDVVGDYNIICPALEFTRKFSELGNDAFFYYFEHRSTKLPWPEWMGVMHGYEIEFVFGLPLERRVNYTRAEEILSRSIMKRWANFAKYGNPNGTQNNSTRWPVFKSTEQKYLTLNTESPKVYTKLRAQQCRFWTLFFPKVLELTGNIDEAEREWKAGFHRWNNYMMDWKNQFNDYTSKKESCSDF

Compound	target	test	system	setting	Ki
CC[C@H](C)[C@H](NC(=O)CN)C(=O)N[C@H](C(=O)N[C@@H](CC(N)=O)C(=O)N[C@H](C(=O)N[C@@H](CC(C)C)C(=O)N[C@@H](CCC(N)=O)C(=O)N[C@@H](CCCCN)C(=O)N[C@@H](Cc1ccc(O)cc1)C(=O)N[C@@H](Cc1ccc(O)cc1)C(=O)N[C@H]1CSSC[C@@H]2NC(=O)[C@H](CCCCN)NC(=O)[C@H](CCCNC(=N)N)NC(=O)CNC(=O)[C@H](CCCNC(=N)N)NC(=O)[C@H]([C@@H](C)O)NC(=O)[C@H](CO)NC(=O)[C@@H]3CSSC[C@H](NC(=O)[C@H](CCCNC(=N)N)NC(=O)CNC(=O)CNC(=O)[C@H](CCCNC(=N)N)NC(=O)[C@H](C(C)C)NC(=O)[C@H](CCCNC(=N)N)NC1=O)C(=O)N[C@@H](C)C(=O)N[C@@H](C(C)C)C(=O)N[C@@H](CC(C)C)C(=O)N[C@@H](CO)C(=O)N[C@@H](CSSC[C@@H](C(=O)N[C@@H](CCCNC(=N)N)C(=O)N[C@@H](C)C(=O)N[C@@H](CCCCN)C(=O)N[C@@H](C)C(N)=O)NC2=O)C(=O)N[C@@H](CC(C)C)C(=O)N1CCC[C@H]1C(=O)N[C@@H](CCCCN)C(=O)N[C@@H](CCC(=O)O)C(=O)N[C@@H](CCC(=O)O)C(=O)N[C@@H](CCC(N)=O)C(=O)N[C@@H]([C@@H](C)CC)C(=O)NCC(=O)N[C@@H](CCCCN)C(=O)N3)[C@@H](C)O)[C@@H](C)CC	MC4R	ligand displacement in cells	–	–	0.083 µM
O=C(NCCN1CCC2(CC1)C(=O)NCN2c1ccccc1)c1ccc2ccccc2c1	ADRA2C (Homo sapiens, UniProt P18825)	ligand displacement, radioligand	–	–	0.6 µM
CC[C@H](C)[C@H](NC(=O)[C@H](CS)NC(=O)[C@H](CCC(N)=O)NC(=O)[C@H](CC(C)C)NC(=O)[C@H](CCCCN)NC(=O)[C@H](CCCNC(=N)N)NC(=O)[C@H](C)NC(=O)[C@@H](NC(=O)[C@H](CCC(N)=O)NC(=O)[C@@H](NC(=O)[C@H](CCC(=O)O)NC(=O)[C@H](C)NC(=O)[C@H](CCC(N)=O)NC(=O)[C@@H](N)Cc1c[nH]cn1)C(C)C)[C@@H](C)CC)C(=O)N[C@@H](C)C(=O)N[C@@H](CC(=O)O)C(=O)N[C@@H](CCC(N)=O)C(=O)N[C@@H](Cc1ccccc1)C(=O)N[C@@H](Cc1c[nH]cn1)C(=O)N[C@@H](CCCNC(=N)N)C(=O)N[C@@H](CC(C)C)C(=O)N[C@@H](Cc1c[nH]cn1)C(=O)N[C@H](C(=O)N[C@@H](CCC(N)=O)C(=O)N[C@@H](CCC(N)=O)C(=O)O)C(C)C	MCL1 (Homo sapiens, UniProt Q07820)	ligand displacement, FP	–	–	12 µM
Cc1cc(O)c2c(c1)C(=O)c1c(O)ccc(O)c1C2=O	Cholinesterase (BCHE, Equus caballus, UniProt P81908)	enzyme activity, inhibitor	–	–	12.3 µM
Cc1cc2c(cc1Cl)-c1c(c(C(=O)NC(C)C3CCCCC3)nn1-c1ccc(Cl)cc1Cl)C2 (stereo not shown)	Cnr2	ligand displacement, radioligand	–	–	0.85 µM
CC[C@H](C)[C@H](NC(=O)CN)C(=O)N[C@H](C(=O)N[C@@H](CC(N)=O)C(=O)N[C@H](C(=O)N[C@@H](CC(C)C)C(=O)N[C@@H](CCC(N)=O)C(=O)N[C@@H](C)C(=O)N[C@@H](Cc1ccc(O)cc1)C(=O)N[C@@H](Cc1ccc(O)cc1)C(=O)N[C@H]1CSSC[C@@H]2NC(=O)[C@H](CCCCN)NC(=O)[C@H](CCCNC(=N)N)NC(=O)CNC(=O)[C@H](CCCNC(=N)N)NC(=O)[C@H]([C@@H](C)O)NC(=O)[C@H](CO)NC(=O)[C@@H]3CSSC[C@H](NC(=O)[C@H](CCCNC(=N)N)NC(=O)CNC(=O)CNC(=O)[C@H](CCCNC(=N)N)NC(=O)[C@H](C(C)C)NC(=O)[C@H](CCCNC(=N)N)NC1=O)C(=O)N[C@@H](C)C(=O)N[C@@H](C(C)C)C(=O)N[C@@H](CC(C)C)C(=O)N[C@@H](CO)C(=O)N[C@@H](CSSC[C@@H](C(=O)N[C@@H](CCCNC(=N)N)C(=O)N[C@@H](CCCNC(=N)N)C(=O)N[C@@H](CCCCN)C(=O)N[C@@H](CCCCN)C(N)=O)NC2=O)C(=O)N[C@@H](CC(C)C)C(=O)N1CCC[C@H]1C(=O)N[C@@H](CCCCN)C(=O)N[C@@H](CCC(=O)O)C(=O)N[C@@H](CCC(=O)O)C(=O)N[C@@H](CCC(N)=O)C(=O)N[C@@H]([C@@H](C)CC)C(=O)NCC(=O)N[C@@H](CCCCN)C(=O)N3)[C@@H](C)O)[C@@H](C)CC	MC4R	ligand displacement in cells	–	–	0.079 µM
CN(Cc1ccccc1)CP(C)(=O)O	Urease	inhibitor	–	pH 7	> 1000 µM
CC(=O)N[C@@H](CCCNC(=N)N)C(=O)N[C@H](Cc1ccc(O)cc1)C(=O)N[C@@H](CCCNC(=N)NC(=O)NCCCCN)C(=O)N[C@@H](CC(C)C)C(=O)N[C@@H](CCCNC(=N)N)C(=O)N[C@@H](Cc1ccc(O)cc1)C(N)=O	NPY2R (Homo sapiens, UniProt P49146)	ligand displacement, radioligand	–	–	> 5 µM
COc1c(OCCOCCOCCOCCOCCOCCOc2cccc(C(=O)C3CCN(CCc4ccc(F)cc4)CC3)c2OC)cccc1C(=O)C1CCN(CCc2ccc(F)cc2)CC1	HTR2A (Homo sapiens, UniProt P28223)	ligand displacement, radioligand	–	–	0.003 µM
C[C@@H]1C(=O)O[C@H]2C1CC[C@@]1(C)[C@H](O)CC[C@@]13C[C@]2(O)OO3 (stereo partly shown)	calmodulin-dependent phosphodiesterase 1	cAMP hydrolysis, inhibitor	–	–	6.1 µM
O=C(N[C@@H](Cc1ccccc1)C(=O)CCl)OCc1ccccc1	Serine protease 1 (PRSS1, Bos taurus, UniProt P00760)	–	–	–	> 100 µM
CCN1CCN(C2=Nc3cc(Cl)ccc3Nc3ccccc32)CC1	HTR2C (Homo sapiens, UniProt P28335)	ligand displacement, radioligand	–	–	0.024 µM and 0.016 to 0.046 µM
CC[C@H](C)[C@H](NC(=O)CN)C(=O)N[C@H](C(=O)N[C@@H](CC(N)=O)C(=O)N[C@H](C(=O)N[C@@H](CC(C)C)C(=O)N[C@@H](CCC(N)=O)C(=O)N[C@@H](CCCCN)C(=O)N[C@@H](Cc1ccc(O)cc1)C(=O)N[C@@H](Cc1ccc(O)cc1)C(=O)N[C@H]1CSSC[C@@H]2NC(=O)[C@H](CCCCN)NC(=O)[C@H](C)NC(=O)CNC(=O)[C@H](C)NC(=O)[C@H]([C@@H](C)O)NC(=O)[C@H](CO)NC(=O)[C@@H]3CSSC[C@H](NC(=O)[C@H](CCCNC(=N)N)NC(=O)CNC(=O)CNC(=O)[C@H](CCCNC(=N)N)NC(=O)[C@H](C(C)C)NC(=O)[C@H](CCCNC(=N)N)NC1=O)C(=O)N[C@@H](C)C(=O)N[C@@H](C(C)C)C(=O)N[C@@H](CC(C)C)C(=O)N[C@@H](CO)C(=O)N[C@@H](CSSC[C@@H](C(=O)N[C@@H](CCCNC(=N)N)C(=O)N[C@@H](CCCNC(=N)N)C(=O)N[C@@H](CCCCN)C(=O)N[C@@H](CCCCN)C(N)=O)NC2=O)C(=O)N[C@@H](CC(C)C)C(=O)N1CCC[C@H]1C(=O)N[C@@H](CCCCN)C(=O)N[C@@H](CCC(=O)O)C(=O)N[C@@H](CCC(=O)O)C(=O)N[C@@H](CCC(N)=O)C(=O)N[C@@H]([C@@H](C)CC)C(=O)NCC(=O)N[C@@H](CCCCN)C(=O)N3)[C@@H](C)O)[C@@H](C)CC	MC4R	ligand displacement in cells	–	–	0.131 µM
CCCCCc1cc(O)c2c(c1)OC(C)(C)C1CCC(C(=O)OC3OC(C(=O)O)C(O)C(O)C3O)=CC21 (stereo not shown)	Cytochrome P450 2B6 (CYP2B6, Homo sapiens, UniProt P20813)	inhibitor	human, pooled liver microsomes	pH 7.4, together with: bupropion 12.5 to 100 µM	1.1 ± 0.47 µM
CCCC[C@@H](CN[C@@H](CC(C)C)C(=O)N[C@@H](CCC(N)=O)C(=O)N[C@H](C(=O)O)[C@@H](C)CC)NC(=O)[C@H](CO)NC(=O)[C@H](CCCC)NC(=O)[C@@H]1CCCN1C(=O)[C@@H](N)CCCCN	Plasmepsin I (PMI, Plasmodium falciparum, UniProt Q7KQM4)	–	–	–	0.073 ± 0.009 µM
CN(Cc1ccccc1)CP(=O)(O)O	Urease	inhibitor	–	pH 7	> 1000 µM
Cc1cc2c(cc1Cl)Cc1c(C(=O)NC3C4(C)CCC(C4)C3(C)C)nn(-c3ccc(Cl)cc3Cl)c1-2 (stereo not shown)	Cnr2	ligand displacement, radioligand	–	–	0.023 µM
CC(=O)NCP(C)(=O)O	Urease	enzyme activity, inhibitor, absorbance	–	pH 7	295 µM
CC1=C[C@H](O/C=C2/C(=O)O[C@H]3c4c(ccc(C)c4C)[C@H](O)[C@@H]23)OC1=O (racemic)	RMS3 (Lathyrus oleraceus, UniProt A0A109QYD3)	cell-free assay, inhibitor	–	–	21.5 µM

A few entries again:
Compound	target	test	system	setting	Ki
O=C(N[C@@H](Cc1ccccc1)C(=O)CCl)OCc1ccccc1	Serine protease 1 (PRSS1, Bos taurus, UniProt P00760)	–	–	–	> 100 µM
CCN1CCN(C2=Nc3cc(Cl)ccc3Nc3ccccc32)CC1	HTR2C (Homo sapiens, UniProt P28335)	ligand displacement, radioligand	–	–	0.024 µM and 0.016 to 0.046 µM
CC[C@H](C)[C@H](NC(=O)CN)C(=O)N[C@H](C(=O)N[C@@H](CC(N)=O)C(=O)N[C@H](C(=O)N[C@@H](CC(C)C)C(=O)N[C@@H](CCC(N)=O)C(=O)N[C@@H](CCCCN)C(=O)N[C@@H](Cc1ccc(O)cc1)C(=O)N[C@@H](Cc1ccc(O)cc1)C(=O)N[C@H]1CSSC[C@@H]2NC(=O)[C@H](CCCCN)NC(=O)[C@H](C)NC(=O)CNC(=O)[C@H](C)NC(=O)[C@H]([C@@H](C)O)NC(=O)[C@H](CO)NC(=O)[C@@H]3CSSC[C@H](NC(=O)[C@H](CCCNC(=N)N)NC(=O)CNC(=O)CNC(=O)[C@H](CCCNC(=N)N)NC(=O)[C@H](C(C)C)NC(=O)[C@H](CCCNC(=N)N)NC1=O)C(=O)N[C@@H](C)C(=O)N[C@@H](C(C)C)C(=O)N[C@@H](CC(C)C)C(=O)N[C@@H](CO)C(=O)N[C@@H](CSSC[C@@H](C(=O)N[C@@H](CCCNC(=N)N)C(=O)N[C@@H](CCCNC(=N)N)C(=O)N[C@@H](CCCCN)C(=O)N[C@@H](CCCCN)C(N)=O)NC2=O)C(=O)N[C@@H](CC(C)C)C(=O)N1CCC[C@H]1C(=O)N[C@@H](CCCCN)C(=O)N[C@@H](CCC(=O)O)C(=O)N[C@@H](CCC(=O)O)C(=O)N[C@@H](CCC(N)=O)C(=O)N[C@@H]([C@@H](C)CC)C(=O)NCC(=O)N[C@@H](CCCCN)C(=O)N3)[C@@H](C)O)[C@@H](C)CC	MC4R	ligand displacement in cells	–	–	0.131 µM
